Measured values gathered from unrelated publications.
A part holds a random share of what one study measured. Several values in a cell are separate wells, animals, samples, runs or records.
Chain of UniProt Q9BVS4 (whole entry, looked up): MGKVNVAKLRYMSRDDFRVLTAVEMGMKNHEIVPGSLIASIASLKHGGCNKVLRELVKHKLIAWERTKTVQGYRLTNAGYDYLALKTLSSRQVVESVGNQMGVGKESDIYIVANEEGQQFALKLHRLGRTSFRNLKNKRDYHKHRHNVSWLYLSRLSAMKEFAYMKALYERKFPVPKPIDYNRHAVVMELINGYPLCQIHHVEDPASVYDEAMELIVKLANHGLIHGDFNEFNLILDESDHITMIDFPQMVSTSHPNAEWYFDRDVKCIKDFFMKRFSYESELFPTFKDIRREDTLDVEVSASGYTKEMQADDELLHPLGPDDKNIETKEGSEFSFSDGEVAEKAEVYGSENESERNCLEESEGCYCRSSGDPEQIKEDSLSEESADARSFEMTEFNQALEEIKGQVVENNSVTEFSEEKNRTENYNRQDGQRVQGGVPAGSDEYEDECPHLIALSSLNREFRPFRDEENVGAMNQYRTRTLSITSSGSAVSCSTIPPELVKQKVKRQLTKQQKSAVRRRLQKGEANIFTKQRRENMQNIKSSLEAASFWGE
Chain of UniProt Q92918 (whole entry, looked up): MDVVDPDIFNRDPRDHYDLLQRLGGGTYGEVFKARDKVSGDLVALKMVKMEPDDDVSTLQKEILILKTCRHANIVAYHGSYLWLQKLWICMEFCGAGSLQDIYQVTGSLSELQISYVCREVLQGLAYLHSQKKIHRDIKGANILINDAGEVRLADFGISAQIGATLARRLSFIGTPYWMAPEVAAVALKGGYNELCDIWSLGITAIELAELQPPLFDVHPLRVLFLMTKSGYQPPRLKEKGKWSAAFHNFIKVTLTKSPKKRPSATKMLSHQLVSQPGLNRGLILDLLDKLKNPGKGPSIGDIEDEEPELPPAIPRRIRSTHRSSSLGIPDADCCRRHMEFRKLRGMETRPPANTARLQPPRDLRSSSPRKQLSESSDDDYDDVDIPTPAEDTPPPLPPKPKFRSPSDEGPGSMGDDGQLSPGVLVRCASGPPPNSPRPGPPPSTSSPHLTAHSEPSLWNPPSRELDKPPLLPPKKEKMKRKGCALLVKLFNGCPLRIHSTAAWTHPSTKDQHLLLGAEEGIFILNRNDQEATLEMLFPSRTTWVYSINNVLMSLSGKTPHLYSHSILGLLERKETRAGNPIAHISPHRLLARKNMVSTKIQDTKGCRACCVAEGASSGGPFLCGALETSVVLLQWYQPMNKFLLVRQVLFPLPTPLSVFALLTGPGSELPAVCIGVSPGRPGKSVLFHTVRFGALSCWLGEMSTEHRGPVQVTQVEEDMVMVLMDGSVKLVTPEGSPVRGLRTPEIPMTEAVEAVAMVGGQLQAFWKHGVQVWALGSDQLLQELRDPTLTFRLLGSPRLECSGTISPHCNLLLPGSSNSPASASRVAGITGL
Chain of UniProt Q8TF76 (whole entry, looked up): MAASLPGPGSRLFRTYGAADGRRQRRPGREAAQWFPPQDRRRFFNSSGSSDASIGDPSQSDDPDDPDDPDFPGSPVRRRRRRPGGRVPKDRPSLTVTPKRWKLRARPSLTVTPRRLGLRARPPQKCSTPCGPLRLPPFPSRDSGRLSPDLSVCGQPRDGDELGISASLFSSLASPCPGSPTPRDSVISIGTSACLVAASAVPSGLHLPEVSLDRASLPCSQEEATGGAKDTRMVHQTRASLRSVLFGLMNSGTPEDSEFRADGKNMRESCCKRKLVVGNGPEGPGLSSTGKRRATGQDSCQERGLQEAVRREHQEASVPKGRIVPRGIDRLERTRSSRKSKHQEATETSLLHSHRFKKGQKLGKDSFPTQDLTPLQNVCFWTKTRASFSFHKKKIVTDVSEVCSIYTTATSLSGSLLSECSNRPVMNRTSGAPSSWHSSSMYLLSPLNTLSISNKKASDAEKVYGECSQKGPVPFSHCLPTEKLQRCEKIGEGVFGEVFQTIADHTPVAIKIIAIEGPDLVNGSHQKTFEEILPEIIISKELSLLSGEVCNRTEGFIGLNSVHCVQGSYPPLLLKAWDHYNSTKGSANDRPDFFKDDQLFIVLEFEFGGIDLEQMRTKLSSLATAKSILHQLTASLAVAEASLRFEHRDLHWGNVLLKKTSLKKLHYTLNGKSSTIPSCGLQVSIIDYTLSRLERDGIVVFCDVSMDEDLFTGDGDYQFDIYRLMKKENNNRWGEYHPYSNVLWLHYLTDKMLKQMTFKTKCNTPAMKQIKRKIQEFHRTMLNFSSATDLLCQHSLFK
Chain of UniProt P42336 (whole entry, unmodified, looked up): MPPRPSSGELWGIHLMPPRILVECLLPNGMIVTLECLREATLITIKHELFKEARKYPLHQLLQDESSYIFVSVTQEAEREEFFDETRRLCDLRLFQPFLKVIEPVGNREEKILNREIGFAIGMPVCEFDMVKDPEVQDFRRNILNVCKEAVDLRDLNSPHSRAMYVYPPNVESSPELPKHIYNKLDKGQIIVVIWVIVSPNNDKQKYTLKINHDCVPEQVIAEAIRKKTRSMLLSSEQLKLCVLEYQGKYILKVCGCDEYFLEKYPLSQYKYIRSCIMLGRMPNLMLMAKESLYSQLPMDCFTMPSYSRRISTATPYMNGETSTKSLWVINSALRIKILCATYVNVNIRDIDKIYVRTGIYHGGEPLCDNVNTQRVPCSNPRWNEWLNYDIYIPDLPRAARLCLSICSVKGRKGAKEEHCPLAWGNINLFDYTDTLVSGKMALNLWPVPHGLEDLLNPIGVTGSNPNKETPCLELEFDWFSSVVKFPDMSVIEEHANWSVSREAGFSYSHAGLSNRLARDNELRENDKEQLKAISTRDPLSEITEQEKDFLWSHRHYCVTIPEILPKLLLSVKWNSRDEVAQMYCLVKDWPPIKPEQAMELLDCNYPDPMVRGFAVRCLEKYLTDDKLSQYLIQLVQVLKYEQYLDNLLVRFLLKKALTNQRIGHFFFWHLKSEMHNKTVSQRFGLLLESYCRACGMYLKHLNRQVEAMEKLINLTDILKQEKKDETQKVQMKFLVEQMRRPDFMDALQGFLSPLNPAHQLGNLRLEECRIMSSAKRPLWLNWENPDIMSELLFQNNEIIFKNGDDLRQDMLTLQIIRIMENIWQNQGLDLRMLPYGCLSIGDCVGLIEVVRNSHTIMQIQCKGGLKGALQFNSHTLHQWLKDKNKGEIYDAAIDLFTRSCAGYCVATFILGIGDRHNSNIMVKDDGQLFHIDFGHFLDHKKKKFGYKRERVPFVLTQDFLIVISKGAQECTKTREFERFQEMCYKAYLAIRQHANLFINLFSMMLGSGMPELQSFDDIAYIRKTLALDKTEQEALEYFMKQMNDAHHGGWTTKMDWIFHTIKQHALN
Chain of UniProt Q9Y2H1 (whole entry, looked up): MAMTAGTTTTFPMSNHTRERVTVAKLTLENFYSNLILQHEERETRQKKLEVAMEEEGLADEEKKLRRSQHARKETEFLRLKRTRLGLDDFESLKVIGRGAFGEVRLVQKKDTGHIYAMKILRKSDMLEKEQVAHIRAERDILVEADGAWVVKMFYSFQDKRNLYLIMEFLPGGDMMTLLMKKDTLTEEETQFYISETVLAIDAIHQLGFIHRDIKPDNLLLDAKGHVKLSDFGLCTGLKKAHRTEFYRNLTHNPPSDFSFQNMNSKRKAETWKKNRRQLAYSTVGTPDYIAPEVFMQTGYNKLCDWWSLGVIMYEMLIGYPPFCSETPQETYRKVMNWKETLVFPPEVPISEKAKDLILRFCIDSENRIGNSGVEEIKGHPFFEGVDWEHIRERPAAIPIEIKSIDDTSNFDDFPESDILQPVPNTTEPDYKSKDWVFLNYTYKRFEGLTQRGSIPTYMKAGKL
Chain of UniProt O95747 (whole entry, looked up): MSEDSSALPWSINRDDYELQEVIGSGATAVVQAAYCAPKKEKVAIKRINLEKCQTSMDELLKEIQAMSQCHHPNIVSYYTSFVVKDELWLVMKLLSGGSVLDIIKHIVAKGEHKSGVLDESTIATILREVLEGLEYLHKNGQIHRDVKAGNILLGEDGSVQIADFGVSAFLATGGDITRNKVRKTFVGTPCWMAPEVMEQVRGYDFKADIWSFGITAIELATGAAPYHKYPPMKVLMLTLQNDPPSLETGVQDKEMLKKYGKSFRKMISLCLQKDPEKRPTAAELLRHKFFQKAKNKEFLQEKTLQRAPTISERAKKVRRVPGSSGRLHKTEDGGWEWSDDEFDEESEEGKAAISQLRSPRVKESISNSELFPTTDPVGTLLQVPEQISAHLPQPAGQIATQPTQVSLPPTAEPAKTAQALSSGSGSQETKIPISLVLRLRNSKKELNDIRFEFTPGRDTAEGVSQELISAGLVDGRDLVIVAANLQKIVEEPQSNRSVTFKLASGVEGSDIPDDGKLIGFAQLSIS
Chain of UniProt Q9BQI3 (whole entry, looked up): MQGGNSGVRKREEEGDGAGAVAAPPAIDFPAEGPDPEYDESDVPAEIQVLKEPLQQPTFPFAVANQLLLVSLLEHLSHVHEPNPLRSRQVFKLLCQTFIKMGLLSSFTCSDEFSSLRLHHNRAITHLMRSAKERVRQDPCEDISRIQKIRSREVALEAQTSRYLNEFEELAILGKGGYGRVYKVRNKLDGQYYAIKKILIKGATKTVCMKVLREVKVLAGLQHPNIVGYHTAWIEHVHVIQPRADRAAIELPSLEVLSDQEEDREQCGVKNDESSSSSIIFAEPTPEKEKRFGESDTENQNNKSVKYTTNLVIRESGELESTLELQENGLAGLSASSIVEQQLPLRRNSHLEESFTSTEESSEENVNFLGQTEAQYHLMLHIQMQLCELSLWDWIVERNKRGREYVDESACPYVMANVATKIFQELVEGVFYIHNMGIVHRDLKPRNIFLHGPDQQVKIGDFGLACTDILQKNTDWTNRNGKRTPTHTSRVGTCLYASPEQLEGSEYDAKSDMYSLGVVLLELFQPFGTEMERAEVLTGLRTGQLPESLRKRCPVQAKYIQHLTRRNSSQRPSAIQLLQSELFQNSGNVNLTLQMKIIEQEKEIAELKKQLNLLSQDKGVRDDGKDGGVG

Series 1
Structure (SMILES): CC(C)n1cnc(-c2ccc(F)cc2)c1-c1ncc(C(=O)Nc2ccc(N3CCN(C)CC3)cc2)[nH]1
Technique: phase 2a trial
| system | conditions | patients with TEAE [%] |
| --- | --- | --- |
| idiopathic pulmonary fibrosis patients | oral, 30 mg once daily, LDL increased, grade 4 | 0 |
| idiopathic pulmonary fibrosis patients | oral, 30 mg once daily, musculoskeletal disorders, grade 3 | 0 |
| idiopathic pulmonary fibrosis patients | oral, 30 mg once daily, CK-MB increased, grade 3 | 0 |
| patients with idiopathic pulmonary fibrosis | dose not given, free thyroxine decreased, grade 5, all arms | 0 |
| patients with idiopathic pulmonary fibrosis | dose not given, nervous system disorders SOC, grade 5, all arms | 0 |

Series 2
SMILES: CCOc1ccc(Nc2c3c(nc4ccccc24)CCC3)cc1
Organism: Leishmania donovani
Strain: DD8
| assay | system | conditions | inhibition |
| --- | --- | --- | --- |
| parasite killing | promastigotes | 66.66 µM, 48 h | 100% |
| parasite viability, resazurin | promastigotes | 6.66 µM | 86% and 85% and 80% and 84% and 89% and 81% |
| parasite killing | intracellular amastigotes | 40 µM, 24 h | 100% |
| parasite killing | intracellular amastigotes | 2 µM, 48 h | 54% and 57% and 60% |

Series 3
Host: human
Medium: microsomes or S9
Tested at: 2 µM
Time: 0.5 h
| SMILES | remaining compound [%] |
| --- | --- |
| CC(C)NC(=O)Nc1ccc(O)c(-c2nc(-c3nnc[nH]3)no2)c1 | 69.3 |
| CCOc1cc(=O)n2c(c1C(=O)NCc1ccccc1Cl)CCCCC2 | 0.258 |
| CN1CC[C@H](OC(=O)C2(c3ccc(F)cc3)CCCC2)C1 | 84.8 |
| CC(=O)c1c(NN2CCOCC2)oc(C)cc1=O | 90.6 |

Series 4
Cell line: mouse MPNST tumor cells
Technique: high-content immunofluorescence imaging
Measured: nuclear SOX9
Tested at: 10 µM
Time: 12 h
Setting: mean of 2 replicates
Relative to: DMSO control
Direction: higher = more nuclear SOX9
| SMILES | nuclear SOX9 intensity |
| --- | --- |
| CS(=O)(=O)c1ccc(C2=C(c3ccccc3)C(=O)OC2)cc1 | 115 % of DMSO |
| O=C(OC(C(F)(F)F)C(F)(F)F)N1CCC(C(O)(c2ccc3c(c2)OCO3)c2ccc3c(c2)OCO3)CC1 | 122 % of DMSO |
| Cn1c([N+](=O)[O-])cnc1COC(N)=O | 101 % of DMSO |
| CC1Nc2ccc(Cl)cc2S(=O)(=O)N1 (centres unmarked) | 96.8 % of DMSO |

Series 5
Structure (SMILES): COc1ccc2c(c1)O[C@H](c1ccc(OC)c(OC)c1)C[C@@H]2NC(=O)C1(c2ccc3c(c2)OC(F)(F)O3)CC1
Read-out: cell-free assay
Technique: competition with immobilised ligand
Tested at: 1 µM
| target | remaining binding [%] |
| --- | --- |
| MAP3K15 (Homo sapiens, UniProt Q6ZN16) | 100 |
| HASPIN (Homo sapiens, UniProt Q8TF76) | 91 |
| PIK3CA (Homo sapiens, UniProt P42336, H1047Y) | 100 |
| HIPK4 (Homo sapiens, UniProt Q8NE63) | 91 |
| ACVR2B (Homo sapiens, UniProt Q13705) | 100 |
| STK38L (Homo sapiens, UniProt Q9Y2H1) | 100 |
| RIOK2 (Homo sapiens, UniProt Q9BVS4) | 100 |
| MAP3K19 (Homo sapiens, UniProt Q56UN5) | 100 |
| FLT3 (Homo sapiens, UniProt P36888, K663Q) | 100 |
| MAP4K1 (Homo sapiens, UniProt Q92918) | 98 |
| OXSR1 (Homo sapiens, UniProt O95747) | 98 |
| STK10 (Homo sapiens, UniProt O94804) | 100 |
| PRKG2 (Homo sapiens, UniProt Q13237) | 89 |
| CDK8 (Homo sapiens, UniProt P49336) | 100 |
| EIF2AK1 (Homo sapiens, UniProt Q9BQI3) | 100 |

For quick reference, copied from above (series 3):
| SMILES | remaining compound [%] |
| --- | --- |
| CCOc1cc(=O)n2c(c1C(=O)NCc1ccccc1Cl)CCCCC2 | 0.258 |
| CC(C)NC(=O)Nc1ccc(O)c(-c2nc(-c3nnc[nH]3)no2)c1 | 69.3 |
| CN1CC[C@H](OC(=O)C2(c3ccc(F)cc3)CCCC2)C1 | 84.8 |
| CC(=O)c1c(NN2CCOCC2)oc(C)cc1=O | 90.6 |
